Experimental data of several laboratories.
Lines come from different studies, so protocols differ. ± gives the spread as reported.
UniProt P21554, sequence (whole entry, unmodified, looked up): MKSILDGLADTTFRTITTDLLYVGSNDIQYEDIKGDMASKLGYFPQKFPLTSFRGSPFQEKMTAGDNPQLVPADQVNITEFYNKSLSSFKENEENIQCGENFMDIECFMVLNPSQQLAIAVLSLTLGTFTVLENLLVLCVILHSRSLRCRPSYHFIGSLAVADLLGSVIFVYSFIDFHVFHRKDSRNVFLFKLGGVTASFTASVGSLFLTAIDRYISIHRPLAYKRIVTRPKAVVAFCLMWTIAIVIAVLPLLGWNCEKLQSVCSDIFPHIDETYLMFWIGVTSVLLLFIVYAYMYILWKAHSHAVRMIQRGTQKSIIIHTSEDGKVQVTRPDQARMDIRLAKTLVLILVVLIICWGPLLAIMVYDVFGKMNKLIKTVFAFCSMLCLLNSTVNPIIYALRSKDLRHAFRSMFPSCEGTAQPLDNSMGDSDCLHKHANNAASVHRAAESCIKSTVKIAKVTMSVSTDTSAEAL
UniProt Q01959, sequence (whole entry, unmodified, looked up): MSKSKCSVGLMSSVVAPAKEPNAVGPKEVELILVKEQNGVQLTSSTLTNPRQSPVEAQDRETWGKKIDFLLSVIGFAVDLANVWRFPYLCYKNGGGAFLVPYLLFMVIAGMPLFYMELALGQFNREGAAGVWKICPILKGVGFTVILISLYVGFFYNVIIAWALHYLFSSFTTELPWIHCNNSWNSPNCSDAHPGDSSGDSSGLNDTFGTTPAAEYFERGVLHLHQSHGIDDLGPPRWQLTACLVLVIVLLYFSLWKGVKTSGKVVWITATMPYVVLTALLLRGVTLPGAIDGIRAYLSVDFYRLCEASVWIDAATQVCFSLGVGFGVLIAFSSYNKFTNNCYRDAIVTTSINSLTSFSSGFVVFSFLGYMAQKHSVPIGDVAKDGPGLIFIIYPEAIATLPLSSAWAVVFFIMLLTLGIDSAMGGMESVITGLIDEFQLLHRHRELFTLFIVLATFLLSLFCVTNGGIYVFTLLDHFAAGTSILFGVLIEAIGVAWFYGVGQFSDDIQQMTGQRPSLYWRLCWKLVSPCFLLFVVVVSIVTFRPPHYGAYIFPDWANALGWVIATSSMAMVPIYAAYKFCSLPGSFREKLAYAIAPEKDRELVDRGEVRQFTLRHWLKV
UniProt P49662, sequence (whole entry, looked up): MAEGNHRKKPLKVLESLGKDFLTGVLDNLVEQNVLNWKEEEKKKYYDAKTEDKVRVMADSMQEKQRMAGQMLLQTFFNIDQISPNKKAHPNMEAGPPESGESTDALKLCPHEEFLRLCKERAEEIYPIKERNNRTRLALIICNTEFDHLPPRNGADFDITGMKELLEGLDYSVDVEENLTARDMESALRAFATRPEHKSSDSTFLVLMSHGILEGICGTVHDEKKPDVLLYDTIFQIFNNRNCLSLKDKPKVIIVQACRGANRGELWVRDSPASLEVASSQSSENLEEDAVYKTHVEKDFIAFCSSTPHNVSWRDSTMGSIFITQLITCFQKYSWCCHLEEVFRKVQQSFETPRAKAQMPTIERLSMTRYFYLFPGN
UniProt P41143, sequence (whole entry, unmodified, looked up): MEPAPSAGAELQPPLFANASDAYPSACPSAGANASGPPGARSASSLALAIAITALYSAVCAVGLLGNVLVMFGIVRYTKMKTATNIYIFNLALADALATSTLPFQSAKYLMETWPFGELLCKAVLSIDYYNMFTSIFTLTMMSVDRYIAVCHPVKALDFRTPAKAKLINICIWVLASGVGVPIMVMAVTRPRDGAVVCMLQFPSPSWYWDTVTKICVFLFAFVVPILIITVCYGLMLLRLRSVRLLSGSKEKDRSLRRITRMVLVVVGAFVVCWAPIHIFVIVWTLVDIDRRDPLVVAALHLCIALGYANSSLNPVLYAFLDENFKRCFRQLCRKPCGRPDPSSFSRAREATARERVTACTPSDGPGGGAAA
UniProt P28335, sequence (whole entry, looked up): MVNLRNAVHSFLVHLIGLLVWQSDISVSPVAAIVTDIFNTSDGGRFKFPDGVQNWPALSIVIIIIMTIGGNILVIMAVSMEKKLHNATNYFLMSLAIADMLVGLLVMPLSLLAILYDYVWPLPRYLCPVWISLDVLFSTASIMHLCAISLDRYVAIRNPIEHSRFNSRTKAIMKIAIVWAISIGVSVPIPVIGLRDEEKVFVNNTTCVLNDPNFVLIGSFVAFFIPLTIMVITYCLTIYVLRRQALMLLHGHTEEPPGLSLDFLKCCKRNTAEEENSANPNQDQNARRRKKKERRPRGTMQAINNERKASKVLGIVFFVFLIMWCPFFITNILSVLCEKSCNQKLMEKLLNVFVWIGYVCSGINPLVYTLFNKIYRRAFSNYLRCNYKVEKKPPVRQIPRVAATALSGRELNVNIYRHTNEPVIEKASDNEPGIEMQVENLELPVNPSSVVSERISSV

Cc1ccc2c(C(C[N+](=O)[O-])c3cccs3)c(-c3ccccc3)[nH]c2c1 (centres unmarked)  EC50 (Cannabinoid receptor 1 (CNR1, Homo sapiens, UniProt P21554, L165A); β-arrestin recruitment, agonist, luciferase): 0.18 µM
Nc1ncnc2c1c(-c1ccc(Oc3ccccc3)cc1)nn2C1CCCC1  Ki (Proto-oncogene tyrosine-protein kinase Src (SRC, Gallus gallus, UniProt P00523, Y527F); enzyme activity, inhibitor): 0.11 µM
CCC[C@@H](C(=O)c1ccccc1)N1CCCC1  Ki (Sodium-dependent dopamine transporter (SLC6A3, Homo sapiens, UniProt Q01959, F76Y); transporter uptake, inhibitor, radiometric): 0.064 µM
O=[N+]([O-])CC(c1ccco1)c1c(-c2ccccc2)[nH]c2ccccc12 (centres unmarked)  EC50 (Cannabinoid receptor 1 (CNR1, Homo sapiens, UniProt P21554, I169A); G protein activation, agonist, BRET): > 1000 µM
CCCCCn1cc(C(=O)c2ccc3ccccc3c2)c2ccccc21  EC50 (Cannabinoid receptor 1 (CNR1, Homo sapiens, UniProt P21554, I267L/L193I/L359V); cAMP inhibition, agonist, CAMYEL BRET biosensor; with: forskolin 10 µM): 0.055 µM
CC(C)CC(C(=O)N1CC2(CC1C#N)C(=O)Nc1ccccc12)N(C)C(=O)c1cc2c(F)cc(F)c(F)c2[nH]1 (centres unmarked)  IC50 (Caspase-4 (CASP4, Homo sapiens, UniProt P49662); enzyme activity, inhibitor): > 100 µM
CCN(CC)C(=O)c1ccc(C(c2cccc(O)c2)N2CC(C)N(Cc3ccccc3)CC2C)cc1 (centres unmarked)  Ki (Delta-type opioid receptor (OPRD1, Homo sapiens, UniProt P41143, V281A)): 0.0015 ± 0.00017 µM
CCN(CC)C(=O)[C@@H]1C=C2c3cccc4c3c(cn4C(=O)c3ccco3)C[C@H]2N(C)C1  Ki (5-hydroxytryptamine receptor 2C (HTR2C, Homo sapiens, UniProt P28335); ligand displacement, radioligand): 0.125 µM

A few entries again:
O=[N+]([O-])CC(c1ccco1)c1c(-c2ccccc2)[nH]c2ccccc12 (centres unmarked)  EC50 (Cannabinoid receptor 1 (CNR1, Homo sapiens, UniProt P21554, I169A); G protein activation, agonist, BRET): > 1000 µM
